Assay results from different studies.
Each line is one published result; not all experiments were run side by side. ± gives the spread as reported. Values after ≈ are worked out from the molar mass of the structure shown.

CCN(CC)CCO[C@H]1CC[C@@]2(C)C(=CC[C@@H]3[C@@H]2CC[C@]2(C)C(=O)CC[C@@H]32)C1 — EC90 (human rotavirus; viral replication, focus reduction; MA104, DS-1): 19900 nM
C[C@H]1COc2c(N3CCN(C)CC3)c(F)cc3c(=O)c(C(=O)O)cn1c23 — MIC90 (Streptococcus pneumoniae): 1 µg/mL (≈ 2.77 µM)
C#Cc1ccc(O)c(C=NNC(=O)c2ccc(Br)cc2)c1 — FICI (Cryptococcus neoformans; H99; unit not given, together with: fluconazole; lower = more synergy): 0.7
Oc1ccc(-c2nc(-c3ccc(Oc4ccc(C(F)(F)F)cc4)cc3)no2)cc1 — inhibition (Clostridioides difficile; ATCC 43255; 45 µM, 1 h, spores): 14 to 39%
O=C(NN=Cc1ccc(O)c(Br)c1)c1cccc(Br)c1 — MIC in combination (Cryptococcus neoformans; concentration not given, together with: amphotericin B): 0.15 µg/mL
C[C@H]1[C@@H](O)O[C@@H]2O[C@@]3(C)CC[C@H]4[C@H](C)CC[C@@H]1[C@@]24OO3 — EC50 (Plasmodium falciparum; parasite growth, SYBR Green; 3D7 wild type; 72 h): 27.4 ± 6.8 nM
NCCCC[C@H]1NC(=O)[C@H](CO)NC(=O)[C@H](Cc2ccccc2)NC(=O)[C@@H](Cc2ccccc2)NC(=O)[C@H](Cc2c[nH]c3ccccc23)NC(=O)[C@@H](CCCN)NC(=O)[C@H](CCCN)NC1=O — IC50 (Naegleria fowleri; trophozoites): > 16 µg/mL
Brc1ccc(CCNC2CCCc3c2[nH]c2ccc(-c4ccccc4)cc32)cc1 (centres unmarked) — MIC fold change (Streptococcus pneumoniae; concentration not given, 10% fetal bovine serum; reference: without serum): 4
Cc1[nH]c2ccc(-c3ccccc3)cc2c(=O)c1Br — EC50 ratio (Plasmodium falciparum; parasite growth, SYBR Green; 72 h; reference: 3D7-E182D over 3D7): 3.4
COC(=O)c1ccc2c(ccc3oc([N+](=O)[O-])cc32)c1 — MIC90 (Klebsiella pneumoniae; REMA): > 32 µg/mL
CS(=O)(=O)CCCn1c(Cn2c(=O)n(CC(F)(F)F)c3ccncc32)cc2cc(Cl)ccc21 — LS mean viral load change (respiratory syncytial virus; RT-qPCR; hospitalized infants 1-24 months, nasal swab; oral, 8 mg/kg daily, day 14, cohort 6-24 months; reference: baseline): -4.15 log10 copies/mL
CC(C)CN1CCc2ccc(Br)cc21 — IC50 (Plasmodium falciparum; 3D7): 10000 nM
CCc1nc2nc(C)cc(Nc3ccc4c(c3)OCCO4)n2n1 — EC50 (Plasmodium falciparum; parasite growth, SYBR Green; 3D7 wild type; 72 h): 610 ± 140 nM
CC(C)[C@H]1NC(=O)[C@H](Cc2ccccc2)NC(=O)CNC(=O)[C@@H](Cc2c[nH]c3ccccc23)NC(=O)[C@H](CCCCN)NC(=O)[C@@H](CCCN)NC1=O — IC90 (Acanthamoeba castellanii; trophozoites): > 16 µg/mL
Cc1cnc(N2CC3(CCOCC3)C2)c(C(=O)Nc2ccc(C(=O)N3CCc4cc(C(=O)Nc5c(C)cccc5F)sc4-c4ccccc43)cc2)c1 — IC90 (human respiratory syncytial virus; viral replication, CPE; HEp-2, A2 passaged with DMSO): 1.51 nM
C#Cc1ccc(C=NNC(=O)c2ccc(COC)cc2)c(O)c1 — FICI (Cryptococcus neoformans; H99; unit not given, together with: fluconazole; lower = more synergy): 1
COc1ccc(NC(=O)CCNc2cc(C)nc(NCCc3ccc(F)cc3)n2)cc1 — EC50 (Plasmodium falciparum; parasite growth, SYBR Green; 3D7 wild type; 72 h): 843 ± 150 nM
CC(C)[C@@H]1NC(=O)[C@@H](CCCCN)NC(=O)[C@H](CCCN)NC(=O)[C@@H](CC(=O)O)NC(=O)[C@H](C)NC(=O)[C@H](Cc2c[nH]c3ccccc23)NC(=O)[C@@H](Cc2c[nH]c3ccccc23)NC1=O — IC90 (Acanthamoeba castellanii; trophozoites): > 16 µg/mL
Nc1ncnc2c1ncn2[C@@H]1O[C@@H]2COP(=O)(O)O[C@H]3[C@@H](O)[C@H](n4cnc5c(=O)[nH]cnc54)O[C@@H]3COP(=O)(O)O[C@H]2[C@H]1O — fold enrichment (West Nile virus; RNA sequencing, refers to: NOD1/2 signaling pathway R-HSA-168638; HFF-1 cells; concentration not given, upregulated pathway; reference: WNV-infected untreated cells): 5.97
CC(C)[C@@H]1NC(=O)[C@@H](CCCCN)NC(=O)[C@H](CCCCN)NC(=O)[C@@H](CCCN)NC(=O)[C@H](C)NC(=O)[C@H](Cc2c[nH]c3ccccc23)NC(=O)[C@@H](Cc2ccccc2)NC1=O — IC50 (Naegleria fowleri; trophozoites): > 16 µg/mL
Cc1nc(Nc2ccc(C)c(Cl)c2)c2c(C)noc2n1 — EC50 (Plasmodium falciparum; parasite growth; Dd2): 375 ± 81 nM
COc1cc2c(cc1C(F)(F)F)N(C(=O)Nc1cc(F)cc(-c3cccnc3)c1)CC2 — IC50 (Plasmodium falciparum; D10): 2000 nM
Cc1noc(-c2cccs2)c1C(=O)NCCc1cccc(Cl)c1 — EC50 (Plasmodium falciparum; parasite growth): 2090 ± 560 nM
CN(C)CCCN1c2ccccc2Sc2ccccc21 — IC50 (Plasmodium falciparum; 3D7): 12600 nM
CC1(C(=O)Nc2ccc(O)c(Cl)c2Cl)CCCCC1 — EC95 (Botrytis cinerea; lesion diameter; B05.10, cucumber seedlings; spray, 3 days, 20 °C): 7 µg/mL (≈ 23.2 µM)
CNC(=O)c1cc(Cl)cc(C)c1NC(=O)c1cc(Br)nn1-c1ncccc1Cl — mortality (Spodoptera litura; leaf-dip; third instar larvae; 6.25 ppm, 48 h): 60%
CC(C)C[C@@H]1NC(=O)CNC(=O)[C@@H](Cc2ccccc2)NC(=O)[C@H](CCCCN)NC(=O)[C@@H](CCCN)NC(=O)[C@@H](C(C)C)NC1=O — IC50 (Acanthamoeba castellanii; trophozoites): > 16 µg/mL
CC(C)C(NC(=O)Cc1cccc2ccccc12)C(=O)Nc1cccc(C#N)c1 (centres unmarked) — EC50 (Plasmodium falciparum; parasite growth, SYBR Green; 3D7 DHODH E182D; 72 h): 10500 ± 2800 nM
CC(C)[C@H]1NC(=O)[C@H](Cc2ccccc2)NC(=O)[C@@H](Cc2c[nH]c3ccccc23)NC(=O)[C@H](CCCNC(=N)N)NC(=O)[C@@H](CCCN)NC(=O)[C@H](CC(N)=O)NC1=O — IC90 (Naegleria fowleri; trophozoites): > 16 µg/mL
CN(C)c1nc(NCc2cccc(F)c2)c(/N=N/c2ccc(Cl)cc2)c(N(C)C)n1 — mortality (Ostrinia furnacalis; leaf dipping; 50 mg/L, 96 h): 66.7 ± 5.8%
COC(=O)N[C@H](C(=O)N1CCC[C@H]1c1ncc(-c2ccc(-c3ccc(-c4cnc([C@@H]5CCCN5C(=O)[C@@H](NC(=O)OC)C(C)C)[nH]4)cc3)cc2)[nH]1)C(C)C — combination index (Hepatitis C virus; replicon cells; 90% effect level, together with: IFN-alpha, ratio 2.5:1): 0.47
Nc1nccc2c1ncn2[C@@H]1O[C@H](CO)[C@@H](O)[C@H]1O — IC50 (Plasmodium falciparum; GB4): 5010 nM
Cc1cc(Cl)cc(S(C)(=O)=O)c1NC(=O)c1cc(Br)nn1-c1ncccc1Cl — mortality (Spodoptera litura; leaf-dip; third instar larvae; 6.25 ppm, 72 h): 96.7%
Cc1c2c(nn1C)CSCc1cc(n(C)n1)CSc1cc(c3ccccc3c1)OCCCc1c(C(=O)O)n(C)c3c-2c(Cl)ccc13 — fold change (Staphylococcus aureus; label-free quantitative proteomics, refers to: SAOUHSC_00435 protein; SA113; concentration not given; reference: untreated control): 21.9
Cn1c(=O)ccc2ccc(F)c(CCNC[C@H]3CN(c4cnc5c(n4)NC(=O)CO5)C(=O)O3)c21 — MIC90 (Clostridioides difficile): 0.03 µg/mL (≈ 0.064 µM)
CC1(C)SC2C(NC(=O)C(NC(=O)C3=C(O)C4CCCN4C3=O)c3ccccc3)C(=O)N2C1C(=O)O (centres unmarked) — zone of inhibition (Escherichia coli; ΔtolC JW5503-1; 200 µM, together with: 30 µg/mL 2,2'-bipyridyl): 16.7 mm
O=C(O)c1cccc(C(=O)O)n1 — fold MIC reduction (Providencia stuartii; NDM-1 producer; 32 µg/mL, together with: meropenem; reference: meropenem alone): 128
O=[N+]([O-])c1ccccc1Oc1ccc(-c2noc(-c3ccc(O)cc3)n2)cc1 — inhibition (Clostridioides difficile; spore germination; ATCC 43255; 45 µM, 1 h): 14 to 39%
CC(C)[C@@H]1NC(=O)[C@@H](C(C)C)NC(=O)[C@H](C)NC(=O)[C@H](CO)NC(=O)[C@H](Cc2c[nH]c3ccccc23)NC(=O)[C@@H](Cc2ccc(O)cc2)NC(=O)[C@H](CCCN)NC(=O)[C@H](Cc2c[nH]c3ccccc23)NC1=O — IC50 (Naegleria fowleri; trophozoites): > 16 µg/mL
C#Cc1ccc(O)c(C=NNC(=O)c2cc(Br)cc(Br)c2O)c1 — FICI (Cryptococcus neoformans; H99; unit not given, together with: fluconazole; lower = more synergy): 0.62
CC(C)(C)[C@]1(O)CCN2C[C@H]3c4ccccc4CCc4cccc(c43)[C@@H]2C1 — IC50 (Plasmodium falciparum; Dd2): 15800 nM
O=C(NC(=O)c1ccccc1Cl)Nc1ccc(Cl)cc1 — control efficacy (Ostrinia furnacalis; corn seedlings, pot; leaf spray, 100 mg/L, day 7): 54%
COc1cc2nc(N3CCN(C(=O)C4COc5ccccc5O4)CC3)nc(N)c2cc1OC (centres unmarked) — IC50 (Plasmodium falciparum; 3D7): 3160 nM
CSc1nc2nc(C)c(Cc3cccc(C(F)(F)F)c3)c(C)n2n1 — EC50 (Plasmodium falciparum; parasite growth, SYBR Green; 3D7 DHODH E182D; 72 h): 1840 ± 150 nM
CC[N+](CC)(CC)CCOc1ccc(/C=C/c2ccccc2)cc1 — IC50 (Plasmodium falciparum; 7G8): 1260 nM
Cc1ccccc1C(=O)NN=Cc1ccc(O)c(Br)c1 — FIC index (Cryptococcus neoformans; together with: fluconazole; lower = more synergistic): 0.38
CC[C@H](C)[C@H](NC(=O)[C@H](C)NC(=O)[C@H](CCCCN)NC(=O)[C@H](CC(C)C)NC(=O)[C@H](C)NC(=O)[C@@H](NC(=O)[C@H](Cc1c[nH]cn1)NC(=O)[C@H](CC(C)C)NC(=O)[C@@H](NC(=O)[C@@H](NC(=O)[C@H](CCCCN)NC(=O)[C@H](C)NC(=O)[C@H](C)NC(=O)[C@H](CO)NC(=O)[C@H](CCCCN)NC(=O)[C@H](Cc1ccccc1)NC(=O)[C@@H](NC(=O)[C@H](CCCCN)NC(=O)[C@H](CC(C)C)NC(=O)[C@H](Cc1ccccc1)NC(=O)[C@H](CO)NC(=O)[C@H](CCCCN)NC(=O)[C@H](Cc1c[nH]c2ccccc12)NC(=O)[C@H](CCCCN)NC(C)=O)[C@@H](C)O)[C@@H](C)O)C(C)C)[C@@H](C)O)C(=O)N[C@@H](CO)C(=O)N[C@@H](CO)C(N)=O — MBC50 (Streptococcus pyogenes; erythromycin-resistant; 19 strains): 32 µg/mL (≈ 10.9 µM)
COc1cc(N[C@H](C(=O)c2c[nH]c3ccc(OC(F)(F)F)cc23)c2ccc(Cl)cc2OC)cc(S(C)(=O)=O)c1 — inhibition (dengue virus 2; viral infection, luciferase reporter virus; 3 nM, 48 h): 100%
CC(C)C[C@H]1NC(=O)[C@H]([C@@H](C)O)NC(=O)[C@@H](CCCN)NC(=O)[C@H](CCCNC(=N)N)NC(=O)[C@@H](Cc2ccccc2)NC1=O — IC90 (Acanthamoeba castellanii; trophozoites): > 16 µg/mL
OC(CN1CCC(Cc2ccc(F)cc2)CC1)c1ccc(Cl)cc1 (centres unmarked) — IC50 (Plasmodium falciparum; HB3): 1260 nM
